Experimental data collected from several papers.
Each line is one published result; not all experiments were run side by side. “And” joins repeats or separate records; there may be more than shown. Numbers after ± are the reported error.

`COc1ccc2c(c1)CN(C(=O)CCN1CCC(Cc3ccccc3)CC1)CC[S@@+]2[O-]`: “systolic blood pressure” 127 ± 11 mmHg (telemetry; conscious male beagle dogs; intravenous, 4 mg/kg, 1 h).
For `CN1C(=O)[C@@H](NC(=O)c2nnc(Cc3ccccc3)[nH]2)COc2cccnc21`, the Tmax was 4 h (healthy human, fasted, plasma; oral, 400 mg single dose, median).
For `CNC(=O)c1ccc(-c2cnc3ncc(Cc4ccc5ncccc5c4)n3n2)cc1F`, “patients with adverse event” read 26% (refers to: Fatigue, all grades; cancer patients; oral, dose not given, dose escalation, any causality).
The concentration of `CCc1c(-c2ccccc2)c(-c2ccccc2)nn1-c1ccccc1-c1cccc(OCC(=O)O)c1` is reported as 980 ng/g and 1220 ng/g (Sprague-Dawley rat, large intestine; oral, 10 mg/kg, 1 h).
`N[C@H]1C(O)O[C@H](CO)[C@@H](O)[C@@H]1O` (some centres unmarked) gave an osmolality of 8 mOsmol/kg (aqueous solution; 10 mM, together with: glucose).
`CCn1cc(C(=O)N2CCOCC2)c(=O)c2cc(NC3Cc4ccccc4C3)cnc21` has a half-life of 4.33 h (human, fasted, plasma; oral, 1200 mg single dose, tablet, arithmetic mean).
`Cn1nc([N+](=O)[O-])nc1Oc1ccccc1C(=O)N1CCOCC1` has a logP of 0.45 (octanol/buffer; pH 11, known kinase inactives set).
For `C=CC(=O)Nc1cc(Nc2nccc(-c3cn(C)c4ccccc34)n2)c(OC)cc1N(C)CCN(C)C`, the recovery was 68.9% (storage stability; human dried blood spot; 10 d, on ice, LLOQ level).
`Cn1nc2c(=O)n(C3CC3)cnc2c1[C@](O)(c1cnc(C(F)(F)F)c(Cl)c1)C(F)(F)F` has an AUC(0-24 h) of 66.4 µM·h (humanized SCID mice, blood; 10 mg/kg once daily, 6 days, infected).
For `Cc1ccc([C@@H]2O[C@H](CO)[C@@H](O)[C@H](O)[C@H]2O)cc1Cc1ccc(-c2ccc(F)cc2)s1`, “urinary potassium excretion change” read 2.98 mEq (Japanese type 2 diabetes patients; 200 mg, day 15, 24 h urine collection; baseline: baseline).
For `CCn1c(=O)c(-c2cc(NC(=O)Nc3ccccc3)c(F)cc2Br)cc2cnc(NC)cc21`, “long-term stability accuracy” read 9.69% (human plasma; 4000 ng/mL, 1 months, -20 °C, high QC).
`Cn1ncnc1[C@H]1c2n[nH]c(=O)c3cc(F)cc(c23)N[C@@H]1c1ccc(F)cc1` gave an accumulation half-life of 2470 min (human patients, plasma; oral, 600 µg/m2, dose level DL6, median, together with: temozolomide 55 mg/m2 daily days 2-6).
`O=C(O)Cc1ccccc1Nc1c(Cl)cccc1Cl` — result for “scaled intrinsic clearance”: 135 mL/min/kg (human liver microsomes; 1 µM).
For `COC(=O)c1ccccc1Oc1nc(NC(C)C)nc(NC(C)C)n1`, the logP was 3.54 (octanol/buffer; pH 11, known kinase inactives set).
`Cl.[2H]C([2H])([2H])CC(=O)c1cnc(NC(=O)C2CC2)cc1Nc1cccc(-c2ncn(C([2H])([2H])[2H])n2)c1OC` has a CL/F of 16.5 L/h (geometric mean; human; 20 mg once daily, day 1, fasted, liquid, multiple dose).
`Nc1cccc2ccc(/C=C/C(=O)c3ccccc3)cc12`: “fluorescence quantum yield” 46.5 ± 2.2% (toluene; baseline: coumarin 153 in ethanol).
`CC(=O)O[C@H]1C(=O)[C@@]2(C)[C@H]([C@H](OC(=O)c3ccccc3)[C@]3(O)C[C@H](OC(=O)[C@H](O)[C@@H](NC(=O)c4ccccc4)c4ccccc4)C(C)=C1C3(C)C)[C@]1(OC(C)=O)CO[C@@H]1C[C@@H]2O`: “adverse event incidence” 0% (refers to: decreased appetite; patients with advanced solid tumours; intravenous, dose not given, grade 3 and 4, possibly related to drug).
For `N[C@@H]1c2cccnc2[C@H](OC(=O)N2CCC(n3c(=O)[nH]c4ncccc43)CC2)CC[C@H]1c1cccc(F)c1F`, “decrease in CL/F” read 74.3% (human; oral, dose not given, together with: itraconazole).
`CO[C@H]1/C=C/O[C@@]2(C)Oc3c(C)c(O)c4c(O)c(c(/C=N/N5CCN(C)CC5)c(O)c4c3C2=O)NC(=O)/C(C)=C\C=C\[C@H](C)[C@H](O)[C@@H](C)[C@@H](O)[C@@H](C)[C@H](OC(C)=O)[C@@H]1C` — result for “adverse event Flatulence”: 0% (healthy humans; oral, dose not given).
`CNC(=O)c1ccc(-c2cnc3ncc(Cc4ccc5ncccc5c4)n3n2)cc1F` — result for “ALT increased patients”: 12% (Japanese patients; oral, 400 mg, any grade).

A few entries again:
For `CN1C(=O)[C@@H](NC(=O)c2nnc(Cc3ccccc3)[nH]2)COc2cccnc21`, the Tmax was 4 h (healthy human, fasted, plasma; oral, 400 mg single dose, median).
For `CNC(=O)c1ccc(-c2cnc3ncc(Cc4ccc5ncccc5c4)n3n2)cc1F`, “patients with adverse event” read 26% (refers to: Fatigue, all grades; cancer patients; oral, dose not given, dose escalation, any causality).
